Results from different studies.
Each line is one published result; not all experiments were run side by side. Values joined by “and” are separate records of one study, mostly repeats; a detail may differ.

Structure (SMILES) = COc1ccc2c(-c3ccc(O)c(C)c3)ccnc2c1; cell line = HEK-Blue TLR8 cells; assay = TLR8 activation; conditions = 80 nM, together with: ssRNA40 2.5 µg/mL; inhibition = inhibited
Structure (SMILES) = Cc1cc(NC2CCN(C)CC2)ccc1-c1cc2c(N3CCC[C@H](C(=O)Nc4ccc(C(F)(F)F)cc4)C3)ncnc2[nH]1; cell line = NCI-H2228; assay = cell growth or viability, MTT; conditions = 0.04 µg/mL, 72 h; inhibition = 61.5%
Structure (SMILES) = COc1ccc(CSc2ncccn2)cc1OS(=O)(=O)c1ccc([N+](=O)[O-])cc1; cell line = HUVEC expressing APJ; assay = cell migration, Transwell; conditions = concentration not given; inhibition = ~50%
Structure (SMILES) = Cc1cc(NC2CCN(C)CC2)ccc1-c1cc2c(N3CCC[C@H](C(=O)N4CCCC4)C3)ncnc2[nH]1; cell line = NCI-H2228; assay = cell growth or viability, MTT; conditions = 1 µg/mL, 72 h; inhibition = 18.3%
Structure (SMILES) = Cc1c(COc2cc(OCc3cccc(C#N)c3)c(CNC(C)(CO)CO)cc2Cl)cccc1-c1cccc(OCCCCCC(=O)NO)c1; cell line = SH-SY5Y; assay = cell growth or viability, CCK-8; conditions = 10 µM; inhibition = 52.2%
Structure (SMILES) = CCc1ccc(OCc2nnc(SC3CCCC3=O)n2C(C)c2ccccc2)cc1 (stereo not drawn); cell line = HEK293T; assay = Wnt Super-TOPFlash reporter, inhibitor; conditions = 10 µM, 24 h, viability-normalized; inhibition = 70.5%
Structure (SMILES) = CCC(=CCc1c(O)cc2c(c1O)C(=O)CC(c1ccc(O)cc1)O2)CC (stereo not drawn); cell line = HeLa; assay = cell growth or viability, MTT; conditions = 6.25 µM, 48 h; inhibition = 29.8%
Structure (SMILES) = COc1cc(OC)c(F)c(/C=C/c2cnc3ccn(S(=O)(=O)c4cn(CCF)cn4)c3n2)c1F; cell line = SNU-16 (FGFR2-amplified); assay = cell proliferation; conditions = 333.3 nM; inhibition = 67.5% and 65.3%
Structure (SMILES) = O=C(NCc1ccc(OC(F)(F)F)cc1)[C@H]1CCCN(c2ncnc3[nH]c(-c4ccncc4)cc23)C1; cell line = NCI-H2228; assay = cell growth or viability, MTT; conditions = 0.008 µg/mL, 72 h; inhibition = 10.6%

Repeated from above:
Structure (SMILES) = COc1ccc2c(-c3ccc(O)c(C)c3)ccnc2c1; cell line = HEK-Blue TLR8 cells; assay = TLR8 activation; conditions = 80 nM, together with: ssRNA40 2.5 µg/mL; inhibition = inhibited
